Measurements from different studies.
A part holds a random share of what one study measured.

Study 1 — method: protein binding microarray; form: double-stranded DNA, one strand shown; matrix: in vitro; concentration: not given; relative to: not given; reading: higher = stronger binding
Target: Histone acetyltransferase KAT6A, both winged helices, GST fusion (KAT6A, Homo sapiens, UniProt Q92794, residues 1-181)
Notes: 8-mer, flanks averaged, mean of 2 arrays, mostly near background
Construct (chain): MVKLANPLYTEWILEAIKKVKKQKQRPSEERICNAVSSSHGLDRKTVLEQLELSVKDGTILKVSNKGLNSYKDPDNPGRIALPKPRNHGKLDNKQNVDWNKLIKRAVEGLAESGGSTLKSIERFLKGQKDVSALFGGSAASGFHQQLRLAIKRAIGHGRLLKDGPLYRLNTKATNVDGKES
Strand	E-score
CATCAGAC	0.0279
AACGCGTC	0.322
TGCCAACA	-0.219
ACTTAGTG	-0.328
GATGGTTA	-0.152
CTCTATGA	-0.0838
GTTGGCCA	-0.102
AAGGGTCC	0.061
GACCAGCC	-0.175
AGGCGGCC	0.206
GTATATGA	0.00317

Study 2 — method: protein-binding microarray; form: double-stranded DNA, one strand shown; matrix: in vitro; concentration: not given; reading: higher = stronger binding
Target: Transcriptional repressor CTCF (CTCF, Homo sapiens, UniProt P49711, residues 1-727, full length assumed)
Sequence of UniProt P49711 (whole entry, looked up): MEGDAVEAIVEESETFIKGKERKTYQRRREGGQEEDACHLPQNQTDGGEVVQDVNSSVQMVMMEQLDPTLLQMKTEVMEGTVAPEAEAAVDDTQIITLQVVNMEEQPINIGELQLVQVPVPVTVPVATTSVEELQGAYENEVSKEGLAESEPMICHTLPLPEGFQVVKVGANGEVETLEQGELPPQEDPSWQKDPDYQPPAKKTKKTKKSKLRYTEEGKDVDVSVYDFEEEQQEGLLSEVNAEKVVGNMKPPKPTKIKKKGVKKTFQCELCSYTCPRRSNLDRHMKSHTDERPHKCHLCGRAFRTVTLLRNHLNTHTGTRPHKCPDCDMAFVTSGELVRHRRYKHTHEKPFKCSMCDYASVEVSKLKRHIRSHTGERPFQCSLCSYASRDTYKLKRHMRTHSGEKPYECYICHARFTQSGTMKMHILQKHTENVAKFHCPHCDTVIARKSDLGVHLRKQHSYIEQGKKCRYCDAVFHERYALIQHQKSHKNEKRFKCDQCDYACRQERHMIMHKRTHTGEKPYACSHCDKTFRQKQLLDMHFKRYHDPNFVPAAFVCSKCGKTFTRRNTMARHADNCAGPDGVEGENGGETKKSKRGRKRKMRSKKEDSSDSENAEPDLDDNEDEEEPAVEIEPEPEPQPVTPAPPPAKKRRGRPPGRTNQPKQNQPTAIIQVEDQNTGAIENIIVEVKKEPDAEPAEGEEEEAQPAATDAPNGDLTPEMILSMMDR
Notes: k-mer, scored over probes, only values ≥0.25
Strand	E-score
CATATATC	0.261
CACTAGGG	0.376
CAAATACA	0.321
TACAAAAA	0.336
GTTACATA	0.263
ATGGTAAT	0.251
AGCGCCAT	0.271
CTATGCGC	0.356

Study 3 — method: universal PBM; form: double-stranded DNA, one strand shown; matrix: in vitro; concentration: 600 nM; reading: higher = stronger binding
Target: Sal-like protein 4, full length isoform A (SALL4, Homo sapiens, UniProt Q9UJQ4, residues 1-1053)
Sequence of UniProt Q9UJQ4 (whole entry, looked up): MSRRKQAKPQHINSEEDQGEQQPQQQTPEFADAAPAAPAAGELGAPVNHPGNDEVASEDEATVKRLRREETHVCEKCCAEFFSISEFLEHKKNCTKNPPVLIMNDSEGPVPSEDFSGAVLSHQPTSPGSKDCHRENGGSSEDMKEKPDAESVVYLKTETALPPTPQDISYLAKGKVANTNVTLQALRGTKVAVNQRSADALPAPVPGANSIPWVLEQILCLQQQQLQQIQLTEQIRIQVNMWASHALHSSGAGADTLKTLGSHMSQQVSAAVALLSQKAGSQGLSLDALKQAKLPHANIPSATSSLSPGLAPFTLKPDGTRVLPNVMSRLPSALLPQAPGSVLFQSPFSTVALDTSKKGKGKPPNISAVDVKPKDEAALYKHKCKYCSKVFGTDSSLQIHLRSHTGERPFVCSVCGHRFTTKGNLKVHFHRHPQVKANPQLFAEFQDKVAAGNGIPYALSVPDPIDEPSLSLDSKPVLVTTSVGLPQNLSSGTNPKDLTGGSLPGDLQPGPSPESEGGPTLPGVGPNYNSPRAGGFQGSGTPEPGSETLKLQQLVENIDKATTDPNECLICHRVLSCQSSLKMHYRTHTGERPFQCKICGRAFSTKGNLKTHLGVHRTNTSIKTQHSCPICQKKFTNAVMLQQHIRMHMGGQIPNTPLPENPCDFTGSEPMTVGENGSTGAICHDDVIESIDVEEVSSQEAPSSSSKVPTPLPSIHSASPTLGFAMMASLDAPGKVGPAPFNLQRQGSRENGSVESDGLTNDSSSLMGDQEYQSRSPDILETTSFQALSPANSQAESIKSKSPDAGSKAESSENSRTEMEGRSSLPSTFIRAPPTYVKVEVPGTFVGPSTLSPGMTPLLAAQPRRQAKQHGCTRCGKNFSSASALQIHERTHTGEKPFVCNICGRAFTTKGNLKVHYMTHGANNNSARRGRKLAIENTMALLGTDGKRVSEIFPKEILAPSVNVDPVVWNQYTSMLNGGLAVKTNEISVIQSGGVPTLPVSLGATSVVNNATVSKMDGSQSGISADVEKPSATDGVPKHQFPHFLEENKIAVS
Notes: 8-mer, flanks averaged, mean of replicates
Strand	E-score
ACTTGGTG	0.00717
TCTGTGAA	0.171
CGCAGAGC	-0.193
AGCGCATG	-0.187
AGTCGGTC	-0.238
CGTCGTTC	0.0261
CGGGAGAG	-0.187
TAGTCACA	0.0701
ATATCTTG	0.316
AAAGCCTC	-0.105
CTAGATGA	0.0462
GGTGGCCA	-0.212

Further values, each from its own experiment
Substance	target	assay	test system	setting	scale	measurement	value
PhoQ, residues 284 288 289 292 302 303 SCCLKL	PhoP, residues 12 14 15 18 19 NMSSL (Escherichia coli, UniProt P23836)	Sort-seq, measured: YFP reporter	E. coli	PhoQ-PhoP variant library, added: 10 µM Mg2+	relative to: high Mg2+ state, higher = stronger signaling	fold induction	28.7

Repeated from above (study 3):
Strand	E-score
ACTTGGTG	0.00717
TCTGTGAA	0.171
CGCAGAGC	-0.193
AGCGCATG	-0.187
AGTCGGTC	-0.238
